{"data": "Published values of several laboratories", "Aryl hydrocarbon receptor": "Aryl hydrocarbon receptor (Danio rerio, UniProt Q9YGV3)", "ABL1 F317I": "Tyrosine-protein kinase ABL1 (ABL1, Homo sapiens, UniProt P00519, F317I)", "note": "Each line is one published result; not all experiments were run side by side. ± marks the error that the study gave."}
{"SMILES": "Cn1nc2c3ccccc3n(Cc3ccccc3)cc-2c1=O", "target": "CHRM1 (Homo sapiens, UniProt P11229)", "test": "calcium mobilization, positive allosteric modulator", "test system": "CHO-K1 cells", "conditions": "30 µM, added: submaximal acetylcholine", "endpoint": "maximal ACh response", "value": "48%"}
{"SMILES": "Cc1ccc(-c2ccnc(Nc3ccc(C(=O)N4CCC(N5CCCC5)CC4)cc3)n2)s1", "target": "Protein kinase 6 (Plasmodium falciparum, UniProt Q8IDW1)", "test": "binding, KinaseSeeker split luciferase", "endpoint": "ligand efficiency", "value": 0.29}
{"SMILES": "CCCCCCCCCCCCC/C=C/[C@@H](O)[C@H](CO)NC(=O)CCCCCCCCCCCCCCCCCCCCCCC", "target": "Protein SET (SET, Homo sapiens, UniProt Q01105, Y135C)", "test": "lipid binding, GFP pull-down LC-MS/MS", "test system": "A549 overexpressing GFP-tagged protein", "how to read": "baseline: eluate plus flow-through", "endpoint": "lipid fraction bound", "value": "8%"}
{"SMILES": "Nc1nc(=O)n([C@H]2C[C@H](O)[C@@H](CO)O2)cc1-c1cc2ccccc2o1", "target": "Cytidine deaminase (CDA, Homo sapiens, UniProt P32320)", "test": "deamination, substrate, real-time fluorescence", "conditions": "pH 7.4, 37 °C", "endpoint": "kcat", "value": "2.5 to 3.3 s⁻¹"}
{"SMILES": "Cc1cccc2c1ccc1cc(C(C)C)ccc12", "target": "Aryl hydrocarbon receptor", "test": "reporter gene, agonist, luciferase reporter", "test system": "ZF-4", "conditions": "41.15 µM", "how to read": "baseline: vehicle control", "endpoint": "fold change", "value": 1.28}
{"SMILES": "O=C(COc1ccc(C2CCC(=O)NC2=O)cc1)NCCCCCCN1CCc2c(c3ccccc3n2Cc2ccc(C(=O)NO)cc2)C1 (stereo not drawn)", "target": "HDAC6 (Homo sapiens, UniProt Q9UBN7)", "test": "protein degradation, degrader, western blot", "test system": "MM1.S cells", "conditions": "24 h", "how to read": "baseline: HDAC10 over HDAC6", "endpoint": "DC50 ratio", "value": "1.3 fold"}
{"SMILES": "C[C@@H]1CCN(c2nccc(-c3cnn4ncccc34)n2)C1", "target": "ABL1 F317I", "test": "KINOMEscan", "conditions": "1 µM", "endpoint": "remaining binding", "value": "60%"}
{"SMILES": "Cc1cccc(N2CC(C(=O)O)CC2=O)c1 (stereo not drawn)", "target": "DDB1- and CUL4-associated factor 7 (Homo sapiens, UniProt P61962)", "test": "binding, affinity selection mass spectrometry", "how to read": "baseline: other proteins in batch", "endpoint": "fold enrichment", "value": 0.791}
{"SMILES": "c1ccc(C(NCc2cccnc2)(c2ccccc2)c2ccccc2)cc1", "target": "KCNQ1 (Homo sapiens, UniProt P51787)", "conditions": "100 pM, peak currents above -10 mV", "endpoint": "slope of normalized current vs voltage", "value": "3.2 V⁻¹"}
{"SMILES": "[H]/N=C(/N)NCC(=O)O", "target": "SLC6A6 (Homo sapiens, UniProt P31641, L306A)", "test": "binding, microscale thermophoresis", "conditions": "977 nM, room temperature, added: 50 nM labelled protein", "how to read": "higher = more binding", "endpoint": "normalised MST signal", "value": -0.0548}
{"SMILES": "C=CC(=O)N1CCC(COCC(=O)N2CCN(c3nc(-c4cnc(N)nc4C(F)F)nc(N4CCOC[C@@H]4C)n3)CC2)CC1", "target": "PRKAA2 (Homo sapiens, UniProt P54646)", "test": "KINOMEscan", "conditions": "1 µM", "endpoint": "remaining binding", "value": "100%"}
{"SMILES": "O=C(Nc1cccc2[nH]ccc12)c1ccc(Cl)cc1", "target": "Alpha-synuclein (SNCA, Homo sapiens, UniProt P37840)", "test": "ThT kinetics", "conditions": "concentration not given, added: SNCA 2 µM", "endpoint": "fibril formation", "value": "inhibited"}
{"SMILES": "CC(C)C[C@H](NC(=O)[C@H](Cc1ccccc1)NC(=O)c1cnccn1)B(O)O", "target": "Proteasome component C5/PSMB8 (Homo sapiens, UniProt P20618+P28062)", "test": "inhibitor, jump dilution", "conditions": "1 h", "endpoint": "reversibility", "value": "20 ± 4.7%"}
{"SMILES": "CN1C(=O)/C(=C2\\Nc3ccccc3\\C2=N/O)c2ccc(Br)cc21", "target": "Aryl hydrocarbon receptor", "test": "reporter gene, agonist, luciferase reporter", "test system": "ZF-4", "conditions": "0.8 µM", "how to read": "baseline: vehicle control", "endpoint": "fold change", "value": 20.7}
{"SMILES": "C1=C/COCc2cc(ccc2OCCN2CCCC2)Nc2nccc(n2)-c2cccc(c2)COC/1", "target": "ABL1 F317I", "conditions": "0.1 µM", "how to read": "baseline: DMSO control", "endpoint": "remaining binding", "value": "79%"}
{"note": "A few entries again:"}
{"SMILES": "O=C(Nc1cccc2[nH]ccc12)c1ccc(Cl)cc1", "target": "Alpha-synuclein (SNCA, Homo sapiens, UniProt P37840)", "test": "ThT kinetics", "conditions": "concentration not given, added: SNCA 2 µM", "endpoint": "fibril formation", "value": "inhibited"}
{"SMILES": "Cc1cccc2c1ccc1cc(C(C)C)ccc12", "target": "Aryl hydrocarbon receptor", "test": "reporter gene, agonist, luciferase reporter", "test system": "ZF-4", "conditions": "41.15 µM", "how to read": "baseline: vehicle control", "endpoint": "fold change", "value": 1.28}
